Assay results of several laboratories.
Numbered parts are unrelated; each lists some results of a single study. Positions count from the first letter of the parent shown.

Block 1 — method: RNA Bind-n-Seq; molecule type: RNA; sample: in vitro; concentration: 365 nM; reference: no-protein control; direction: higher = stronger binding
Target: RNA binding protein fox-1 homolog 2, RRM domain, GST-SBP tag (RBFOX2, Homo sapiens, UniProt O43251-10, residues 100-194)
Setting: natural RNA segment, single round, ends assumed
All sequences stand within: GGGAGUUCUACAGUCCGACGAUC … UGGAAUUCUCGGGUGCCAA
Target sequence (chain): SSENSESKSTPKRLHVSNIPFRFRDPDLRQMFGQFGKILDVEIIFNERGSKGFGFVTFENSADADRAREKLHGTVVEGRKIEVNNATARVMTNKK
Oligonucleotide	RBNS enrichment (R)
AGAGGCCACCUAGUCACUGGUCCACAUAACCCUUGACCCCUUCUUCUUCAUAGAGGAAACAAUGUGCCAGUCUUAUUCUUUUCUUCAACAACCUUGACUUCCAUGGAGGA	0.495
CAACUCCCCAAGAGUGCUUAUUUAAGUGUUAAUACUUUUAAGAGAACUGCGACGAUUAAUUGUGGAUCUCCCCCUGCCCAUUGCCUGCUUGAGGGGCACCACUACUCCAG	1.4
AUGGGCUUGUGACCCUAAACUUGCAGGCAAGGUUAGCUGCUUUAGUAAGUAGAAUUUUGUGGUCUUUUUGUUUUUUACAUAGUACCAAGCCUUGAUAAUUAUGAAUUUUU	0.661
UUCUUCUAAAGGGCAUUGGCCUCUCAGGUGAACUUGCAGAGACUUGGCCAAAUUUGCUUCCUCUUUCCCCUGGGGCAGUUGCCUCAUAUGGGGUCAUUACAAGACCCCUU	0.329
AGCGCCACGGACCUCUCUGGGGAGUGGCCGGAAAGCUCCCGGGCCUCUGGCCUGCAGGGCAGCCCAAGUCAUGACUCAGACCAGGUCCCACACUGAGCUGCCCACACUCG	0.19
AAGAAAAGUCAGAAGAAUCUUUAAGAUUUUAAAAAUGUCUUUAAAGUUUUUAAAAUGCUUACUACAUACUUAUAUACACCCCUUGUGAAGAACACAUGACUUUUUAAAGA	0.547
CUUGAAAAAAAAAACAUUAUUGUGGUUGUGGGAGAAAGCUCUAGAUCUGUGCCAUAAUAGAUAUGCAUUGCAAUUGUAUGCCAUGUCUCCAUUUUAAAUUUGAGUUUCCC	1.1
AGGCUCAGUCUUUAGAGGCACUCCCUCUAGUUGAUUAGCACUGUCUUCUGUGGAGUUUGGUUCAAAGACUGGUAUGGCAGAUAGAGGCUUGGAUGCAUUUUUCAUCAGGC	0.528
UGUGUGGGAGACUGUCAUUUGGGAAUUUGAUUUUUUUUUUUCUGUACGAAUUUAAAAAAAAAAGAAAAAAAAGAAACUUCAUUGAAUUACCUUGCAGUGGUGUUGACUCU	0.982
GGGAUCCCUCUCAUGCGGUGGGUCCCAGGGACACUAGAGCCCCUGGUCUGAGAGGGAGAAGCCUGGAUGUAGGAAAACCCGUUUCCACCCCAGGCCCUACUCCCUAGCCU	0.215
UCACACCAUGGGAUACAUCUGUAUGGAGACGGUUCUUUUCUAGAUUUCCUCUACCUUUCUGCUCUUAAACUGCUUCUCUGCUCUGAGAAGCCCAGCUACCUGCCUUCACU	0.415
UCUUUGUUUUUUUUAAAAAAAACAAAAACAGAGGCCAGAACUAUUGUUUGAAAUUAGUAACAAUGCUGCAUCUAGAUUGGAGUGCUGCCCAGCCAUAGAAGCAGAGCUGA	0.391

Block 2 — target: CCND2, cyclin fold, Cln2 fusion (human); method: yeast growth competition, sequencing; sample: yeast; setting: weak parent motif; reference: not given; direction: higher = stronger binding
Starting sequence: BRCA2 docking peptide (human); CKKRRALDFLSRL; partner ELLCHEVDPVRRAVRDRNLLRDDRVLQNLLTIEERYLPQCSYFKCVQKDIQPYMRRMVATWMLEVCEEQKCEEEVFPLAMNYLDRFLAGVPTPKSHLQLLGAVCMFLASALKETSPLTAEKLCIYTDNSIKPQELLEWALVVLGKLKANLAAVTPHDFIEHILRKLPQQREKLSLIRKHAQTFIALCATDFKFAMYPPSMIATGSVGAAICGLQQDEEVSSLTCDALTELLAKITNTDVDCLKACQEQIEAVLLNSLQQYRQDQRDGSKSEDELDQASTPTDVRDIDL
Change	normalised enrichment score
CKKRRALDFLSRA [L13A]	0.321
CKKRRALDLLSRL [F9L]	-0.478
AKKRRALDFLSRL [C1A]	-0.215
CKKRRALDFLARL [S11A]	0.262
CKARRALDFLSRL [K3A]	0.263
CKKRRALDALSRL [F9A]	0.28
CKKRAALDFLSRL [R5A]	0.102

Block 3 — method: RNA Bind-n-Seq; molecule type: RNA; sample: in vitro; concentration: not given; reference: input RNA pool; direction: higher = stronger binding
Target: RING finger protein unkempt homolog, zinc fingers 1-6, GST-SBP tag (UNK, Homo sapiens, UniProt Q9C0B0, residues 30-357)
Sequence of UniProt Q9C0B0 (30-357, looked up): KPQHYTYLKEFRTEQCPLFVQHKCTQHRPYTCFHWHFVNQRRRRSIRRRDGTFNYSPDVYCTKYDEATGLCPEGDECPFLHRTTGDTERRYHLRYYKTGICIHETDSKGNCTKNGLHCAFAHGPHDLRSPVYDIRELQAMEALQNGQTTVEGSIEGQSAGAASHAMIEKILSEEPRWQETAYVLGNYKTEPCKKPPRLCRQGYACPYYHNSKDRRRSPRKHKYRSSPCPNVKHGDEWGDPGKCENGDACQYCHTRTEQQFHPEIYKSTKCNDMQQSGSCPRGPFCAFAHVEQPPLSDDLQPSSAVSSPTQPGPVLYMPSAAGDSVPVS
Setting: RNA with constant flanks, human-mouse chimeric sites, ends assumed
All sequences stand within: GGGAGUUCUACAGUCCGACGAUC … CAACAGAGGAUUGAGCAUCA
Oligonucleotide	bound/input enrichment [ratio]
CACAGAGGAGACCUCCUGUUCCUCACAAAUUUCCGGGAGGACCCCAUCAGAGCUGGUGAAAUAGUUGUUUUUAAGGUUGAAGGAAGAGACAUUCCGAUAGUUCACAGAGUAAUCAAGGUU	5.37
UUCAAAGAAAAGGGCAGCUGUGUCAUUUCAUAAGUAACUCUGGGGGAGGGAAAUUCUGUUCUUUUGUUUUUAGUUUUCCCAAAUGAAGCCAAAGUGUUUUUUAAGGAACUGAGAAAAAAU	0.221
UUGGAAGGACCAGAGCCUAAUCAACUGAAACCACUAGUUAUACAGGCUAUGCCCACCCUAAUAGAACUAAUGAAAGACCCCAGUGUAGUUGUUCGAGACACAACAGCGUGGACUGUGGGC	0.807
CACUCGAGGGCUGCCGUUUUCUGUUUCUCCCUGGGCUGCGGAAAGCCAGAAGAUUUUAUCUAGCUUAUACAAGGCUGCUGGUGUUCCCUCUUUUUUUCCACGAGGGUGUUUUUGGCUGCA	0.388
CUGGCCUGGCCCUCCCCUCUAGUGACCUUUCGUAUAGUCACUGCUUCUGCAUCAGAUACUUUCAGCUGCAACUCCCUACUGGGUGGGGCACCUAUCUCAGGCAGAAGGUUUUGGUACCCU	0.21
GCUCUUGGGAAUGUAAUCAGCGCCUUGGGGGACAAGAGCAAGAGAGCCACACAUGUCCCUUACAGAGACUCUAAGCUAACAAGACUAUUGCAGGAUUCCCUUGGGGGUAACAGCCAAACC	0.157
CUCAUGGCUGCAGAAACAGGAAGUGGAAAAACUGGUGCAUUUAGUAUUCCCGUUAUCCAGAUAGUUUAUGAAACUCUGAAAGACCAACAGGAAGGCAAGAAAGGGAAAACAACUAUUAAA	0.834
CAGGGCAGCACCACCCCCCCCUCCUCCUUUCCACACCUGCAAACUCUUUUACUUGGGCUGAAUAUUUAGUGUAAUUACAUCUCAGCUUUGAGGGCUCCUGUGGCAAAUUCCCGGAUUAAA	0.918
UAAGUUAUUUUGUACAGUAAGUUAUUUUCUUAACAUUUUUAUAUUGCACAUUUUAUGUUGUUUGGGUAAUUUGGUUCAUUAAGUACAUAGCUAAGGUAAUGAACAUCUUUUUCAGUAAUU	1.92
GCGGCAGAAUCAUGGAGGACAUGAUGGAGCUCCCCAAGUCGCGCAUCAACGCCAGCAUGUUACCACAGUAUAUCGACCGGCCCGUGUGCUUCGUGGGGAAGCUGGAAAAGAUUCAUCCCA	0.11
AAACAUCUGUCUUUAAGCAUUCCAAGCGAGAAUGCUGGGGUGAUCAUUGUUGCCCAUGUGCCUUCUGACUGAGCUUUUAAUUAAUUGCAUGUUACAUCUUUCCUUCACUCCAGAAUUGUU	0.241

Block 4 — method: RNA Bind-n-Seq; molecule type: RNA; sample: in vitro; concentration: 200 nM; setting: whole 134-nt RNA, ends assumed; with: 150 mM LiCl; reference: input library; direction: higher = stronger binding; library: 7-deaza-guanosine replaces G
Target: Ras GTPase-activating protein-binding protein 1, full length (G3BP1, Homo sapiens, UniProt Q13283)
Sequence of UniProt Q13283 (whole entry, looked up): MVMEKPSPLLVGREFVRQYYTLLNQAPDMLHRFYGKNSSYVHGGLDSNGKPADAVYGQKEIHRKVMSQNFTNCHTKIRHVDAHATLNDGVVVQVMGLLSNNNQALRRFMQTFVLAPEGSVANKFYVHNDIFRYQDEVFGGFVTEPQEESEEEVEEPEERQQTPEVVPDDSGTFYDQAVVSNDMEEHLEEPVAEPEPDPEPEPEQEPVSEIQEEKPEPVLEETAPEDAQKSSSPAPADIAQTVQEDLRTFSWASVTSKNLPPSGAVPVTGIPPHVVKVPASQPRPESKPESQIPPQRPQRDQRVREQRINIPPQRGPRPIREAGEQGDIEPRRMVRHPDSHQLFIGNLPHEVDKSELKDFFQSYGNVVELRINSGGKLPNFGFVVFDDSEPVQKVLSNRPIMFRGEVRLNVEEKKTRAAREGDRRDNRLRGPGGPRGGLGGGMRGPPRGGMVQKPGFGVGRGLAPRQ
All sequences stand within: GGGAGUUCUACAGUCCGACGAUC … UGGAAUUCUCGGGUGUCAAGG
Oligonucleotide	log2 enrichment
AGUCCUGUGCUACACAUCGUAUGUACCGAAUCGGGAAAAAGGAAAAAGGGAAAAAGGAAAGUAUUAUGUUACGCCGUUCGGAUCUGCACU	-1.02
GUCCUGUGCUACACAUCGUAUGUACCGAAUCGGAAAAAAAGGAAAAAAAGGAAAAAGGAAAGUAUUAUGUUACGCCGUUCGGAUCUGCAC	-1.06
GCUGGAAGUAAAAACAAAUGGAAAUGCUUCGGAUAGUGGCAGGGGUGGGGGUUGCUAAGGAAAGGGUGGGAUGGGAGUGGGUAAAGAGUU	-0.209
GUGCUACACAUCGUAUGUACCGAAUCGGGGCCCCCCCGGGGCCCCCCCGGGGCCCCCCCGGGGAAAGUAUUAUGUUACGCCGUUCGGAUC	-1.06
UAACUUUAGAGGAGGAUCUGAUGGAUAUGGCAGUGGACGUGGAUUUGGGGAUGGCUAUAAUGGGUAUGGAGGAGGCCCUGGAGGUGGCAA	-0.00853
AAGUCCUGUGCUACACAUCGUAUGUACCGAAUCGGGGUUUGGGGUUUGGGUUUGGGAAAGUAUUAUGUUACGCCGUUCGGAUCUGCACUU	-0.416
UCCUGUGCUACACAUCGUAUGUACCGAAUCGGUUUUUUGGGUUUUUUGGGUUUUUUGGGGAAAGUAUUAUGUUACGCCGUUCGGAUCUGC	-0.446
GUCCUGUGCUACACAUCGUAUGUACCGAAUCAAACCCCCAAACCCCCCCAAACCCAAAAAAGUAUUAUGUUACGCCGUUCGGAUCUGCAC	0.0322
UCAAGUCCUGUGCUACACAUCGUAUGUACCGAAUCGGGAAAGGGUUUGGGUGGGAAAGUAUUAUGUUACGCCGUUCGGAUCUGCACUUCC	-0.562
GUCCUGUGCUACACAUCGUAUGUACCGAAUCGGGAAAAAGGAAAAAGGGGAAAAAGGGAAAGUAUUAUGUUACGCCGUUCGGAUCUGCAC	-0.0704
UCAAGUCCUGUGCUACACAUCGUAUGUACCGAAUCGGAAAGGAAAGGGGAAAGGGAAAGUAUUAUGUUACGCCGUUCGGAUCUGCACUUC	-0.376

Some of these lines once more (block 1):
Oligonucleotide	RBNS enrichment (R)
CUUGAAAAAAAAAACAUUAUUGUGGUUGUGGGAGAAAGCUCUAGAUCUGUGCCAUAAUAGAUAUGCAUUGCAAUUGUAUGCCAUGUCUCCAUUUUAAAUUUGAGUUUCCC	1.1
AGGCUCAGUCUUUAGAGGCACUCCCUCUAGUUGAUUAGCACUGUCUUCUGUGGAGUUUGGUUCAAAGACUGGUAUGGCAGAUAGAGGCUUGGAUGCAUUUUUCAUCAGGC	0.528
UGUGUGGGAGACUGUCAUUUGGGAAUUUGAUUUUUUUUUUUCUGUACGAAUUUAAAAAAAAAAGAAAAAAAAGAAACUUCAUUGAAUUACCUUGCAGUGGUGUUGACUCU	0.982
GGGAUCCCUCUCAUGCGGUGGGUCCCAGGGACACUAGAGCCCCUGGUCUGAGAGGGAGAAGCCUGGAUGUAGGAAAACCCGUUUCCACCCCAGGCCCUACUCCCUAGCCU	0.215
UCACACCAUGGGAUACAUCUGUAUGGAGACGGUUCUUUUCUAGAUUUCCUCUACCUUUCUGCUCUUAAACUGCUUCUCUGCUCUGAGAAGCCCAGCUACCUGCCUUCACU	0.415
